Measurements pooled from the literature.
Protocols differ between the studies behind these lines. Values joined by “and” are separate records of one study, mostly repeats; a detail may differ. ± gives the spread as reported.

`O=c1[nH]c(=O)n([C@H]2C[C@H](O)[C@@H](CO)O2)cc1CCCCC[18F]` has a biodistribution of 0.21 ± 0.12 %ID/g (male CD-1 nu/nu mice, RG2 tumour, muscle; intravenous, dose not given, 2 h).
For `N#Cc1ccc2c(c1)[C@H]1CCCN(C(=O)c3ccc4[nH]cnc4c3)[C@H]1C2`, “cortisol level change” read -102 nmol/L (human; 40 mg, end of trial; relative to: baseline).
For `C=CCN1CC(=O)N2[C@@H](Cc3ccc(O)cc3F)C(=O)N(Cc3cccc(N4CC(N5CCN(CC)CC5)C4)n3)C[C@@H]2N1C(=O)NCc1ccccc1`, “treatment-related decreased appetite” read 0% (advanced solid tumour patients; oral, 15 mg twice daily, any grade, dose-escalation).
With `CCCC1CCC(C2CCC(c3cc(F)c(F)c(F)c3)CC2)CC1` (stereo not drawn) the placental accumulation was 15.2 ± 19.7 ng/g (rat, placenta; 1000 ng/mL in perfusate, middle dose, mixture of 21 LCMs).
For `Nc1c(CC(=O)O)cccc1C(=O)c1ccc(Br)cc1`, “total uptake clearance” read 12.1 µL/min/10⁶ cells (cynomolgus monkey hepatocytes; 37 °C, 10% monkey serum).
The QRS duration of `COc1ccc2c(c1)CN(C(=O)CCN1CCC(Cc3ccccc3)CC1)CC[S@@+]2[O-]` is reported as 32 ± 8 ms (telemetry; conscious male beagle dogs; intravenous, 8 mg/kg, 1 h).
For `NC1(C(=O)N[C@@H](CCO)c2ccc(Cl)cc2)CCN(c2nc[nH]c3nccc2-3)CC1`, “incidence of Arthralgia” read 6.7% (metastatic CRPC patients; dose not given, any grade, treatment-related, all doses, together with: enzalutamide 160 mg daily).
For `CNCCOC12CC3(C)CC(C)(CC(Cn4ncc(-c5ccc(N6CCc7cccc(C(=O)Nc8nc9ccccc9s8)c7C6)nc5C(=O)O)c4C)(C3)C1)C2`, “QRS duration change” read 2 ms (beagle dog, male, anaesthetised; intravenous bolus, 0.03 mg/kg, 30 min; relative to: baseline).
`Cc1ncnc2c1ccn2[C@@H]1C[C@H](Oc2cc(C(F)F)c(F)c3c2CNCC3)[C@@H](O)[C@H]1O` gave a Cmin of 26.2 ng/mL (human; 4 mg twice daily, multiple dose, geometric mean).
`Cc1cc(OCC(=O)OCCN)cc(C)c1Cc1ccc(O)c(C(C)C)c1.Cl`: “brain/serum sobetirome ratio” “increased” (LC-MS/MS, measured: liberated sobetirome; mouse, brain and serum; intraperitoneal, 1.5 µmol/kg, 30 min; relative to: equimolar sobetirome injection).
With `Fc1ccc([C@@H]2COC[C@H](c3ccc(-c4ccccc4)cc3)N2)cc1` the solubility was less than 4 µM (shake-flask, LC-HRMS; aqueous buffer; 16 h, pH 6.8).
`Cc1ccc([C@@H]2O[C@H](CO)[C@@H](O)[C@H](O)[C@H]2O)cc1Cc1ccc(-c2ccc(F)cc2)s1`: “urinary sodium excretion change” -19.2 mEq (Japanese type 2 diabetes patients; 100 mg, day 6, 24 h urine collection; relative to: baseline).
`O=c1[nH]c(=O)n([C@H]2C[C@H](O)[C@@H](CO)O2)cc1CCCC[18F]` has a biodistribution of 0.45 ± 0.11 %ID/g (male CD-1 nu/nu mice, RG2 tumour, liver; intravenous, dose not given, 2 h).
For `CO[C@H]1C[C@@H]2CC[C@@H](C)[C@@](O)(O2)C(=O)C(=O)N2CCCC[C@H]2C(=O)O[C@H]([C@H](C)C[C@@H]2CC[C@@H](O)[C@H](OC)C2)CC(=O)[C@H](C)/C=C(\C)[C@@H](O)[C@@H](OC)C(=O)[C@H](C)C[C@H](C)/C=C/C=C/C=C/1C`, the heart rate was 32.5 ± 3.1 beats/min (healthy adult horses; intravenous, 0.06 mg/kg, 10 h).
With `CCCCC1=NC2(CCCC2)C(=O)N1Cc1ccc(-c2ccccc2S(=O)(=O)Nc2noc(C)c2C)c(COCC)c1` the Cmax was 8080 ng/mL (healthy adult volunteers, plasma; oral, 400 mg, single dose, fed, crushed tablet).
Under “total organic impurities”, `CNc1cc[n+](CCNC(=O)c2ccn3c(-c4c(C)noc4C)cnc3c2)cc1.[Cl-]` is recorded as 0 % peak area (0.1 M HCl; 1 weeks, pH 1, room temperature).
Under “lymphocyte count decrease TEAE”, `COc1ccc([C@@H](O)c2cc(-c3ncnc4cc(N5CCOCC5)ccc34)c(F)cc2Cl)nn1` is recorded as 33% (locally advanced rectal cancer patients; 150 mg, together with: capecitabine and radiotherapy).
With `CNCc1ccc(-c2[nH]c3cc(F)cc4c3c2CCNC4=O)cc1` the vomiting incidence was 66.7% (human patients; oral, 840 mg twice daily, all grades).
The AUC(0-t) of `Cc1cc(NC2CCc3cc(Cl)ccc3C2)n2nc(C(C)(F)F)nc2n1` (stereo not drawn) is reported as 22.8 µM·h (NSG mouse, whole blood; oral, 30 mg/kg).
With `CCOC(=O)N1C[C@@H](c2ccc(Cl)cc2)N[C@H](c2cc(Cl)cc(Cl)c2)C1` the solubility was less than 4 µM (shake-flask, LC-HRMS; aqueous buffer; 16 h, pH 6.8).
For `Cn1cnc2ccc(Nc3c(F)ccc(NS(=O)(=O)N4CC(F)C4)c3Cl)c(Cl)c2c1=O`, “patients with lipase increased” read 3% (measured: lipase increased any grade; human patients; dose not given, monotherapy trial; relative to: patients).
`Cc1cc(NC2CCN(C(=O)OC3CCN(C(=O)/C=C/CN(C)C)C3)CC2)n2ncc(C(C)C)c2n1` (stereo not drawn) — result for “patients with adverse event”: 0% (Phase I dose escalation CTCAE v4.0, measured: abdominal distension; patients with advanced solid tumours; dose not given, TIW dosing any grade).
`COc1ccc2c(=O)n(C)c(-c3ccccc3)nc2c1` — result for tissue concentration: “not detected” (Sprague-Dawley rat, heart; oral, 30 mg/kg, 0.25 h).
For `O=C(Nc1nc2cccc(-c3ccc(CN4CCS(=O)(=O)CC4)cc3)n2n1)C1CC1`, “treatment-emergent adverse events” read 0% (measured: lipase increased; human rheumatoid arthritis patients; oral, 200 mg once daily, 4 weeks, regardless of relatedness).
For `COc1ncc(-c2nc3c(n2C(C)C)[C@H](c2ccc(Cl)cc2)N(c2cc(Cl)cn(C)c2=O)C3=O)c(OC)n1`, the AUC(0-last) was 783 ng·h/mL (LC-MS/MS; human, plasma; oral, 15 mg, cycle 1 day 8, low-dose arm).
`CCCCCN1C[C@H](O)[C@@H](O)[C@H](O)[C@@H]1CO` — result for “average plasma concentration”: 12.9 µM and ~13 µM (LC-MS/MS, measured: total compound; mouse Hexb-/-, plasma; oral, food admix, 300 mg/kg/day, about 75 days).
The placental accumulation of `CCCCc1ccc(-c2ccc(C#N)cc2)cc1` is reported as 1.29 ± 2.14 ng/g (Sprague-Dawley rat, female, placenta; 10 ng/mL in perfusate, 50 (unit not given), low dose, mixture of 21 LCMs).
For `CC(C)(C(=O)N1CCOc2c(C#N)cncc2C1)C(F)F`, “subjects with presyncope TEAE” read 0% (human, both sexes; oral, 30 mg single dose).
`COc1cccc(OC)c1-c1cc(C(=O)NC2(C(=O)O)C3CC4CC(C3)CC2C4)nn1-c1ccc(C(=O)N(C)CCCN(C)CCCN(C)C(=O)CN2CCN(CC(=O)[O-])CCN(CC(=O)[O-])CCN(CC(=O)[O-])CC2)cc1C(C)C.[177Lu+3]` (stereo not drawn) has a tissue uptake of 0.7 %ID/g (mouse, HT-29 xenograft, liver; 24 h post injection).
The MRT(0-inf) of `Cc1cccc(CNC(=O)c2cn(CCNC(=O)c3ccccc3S)c3cc4c(cc3c2=O)OC(F)(F)O4)n1` is reported as 48.6 ± 21 min (Sprague-Dawley rat, male, plasma; intravenous, 5 mg/kg of parent drug).
`COc1cc(Nc2ncc3c(n2)-c2ccc(Cl)cc2C(c2c(F)cccc2OC)=NC3)ccc1C(=O)O`: “patients with adverse event” 4% (measured: Nausea, grade 2; cancer patients, phase 1/2; oral, dose not given, together with: pembrolizumab).
`CN1CCC(CNc2ccc3ncc(-c4cccc(OC(F)(F)F)c4)n3n2)CC1`: “lowest toxic concentration” no less than 1.1 µM (organ toxicity signature, BioMAP Diversity PLUS; primary human cell cocultures).
The Cmin of `C[C@H](CCC(=O)NCC(=O)O)[C@H]1CC[C@H]2[C@@H]3CC[C@@H]4C[C@H](O)CC[C@]4(C)[C@H]3C[C@H](O)[C@]12C` is reported as 45.7 ± 11.5 nM (human, plasma; endogenous baseline diurnal).
With `CCCCC/C=C\C/C=C\CCCCCCCC(=O)O.Cc1cc(/C=C/C#N)cc(C)c1Nc1ccnc(Nc2ccc(C#N)cc2)n1` the equilibrium solubility was 14.63 ± 0.13 µg/mL (aqueous buffer; pH 1.2).
For `CCc1cc(C(=O)NC)c2nccc(N3CCc4c(cc(Cn5ccnc5)cc4-c4cn(C)nc4C(F)(F)F)C3=O)c2c1`, the body weight was 251 ± 6.3 g (Sprague Dawley rat; oral, 50 mg/kg once daily, day 5, 7-day toxicology study).
`CCN1/C(=C/C(C)=O)Sc2ccc(F)cc21`: “QTc interval change” 101 ± 1.4% (cynomolgus monkey; oral, 30 mg/kg, 0.5 h post-dose; relative to: pre-dose).
`NC/C(=C\F)COc1cccc(Cn2c(=S)[nH]c(=O)c3[nH]cnc32)c1` gave a concentration of 293 ng/mL (C57BL/6J mice, plasma; oral, 15 mg/kg single, 1 h).
With `N#Cc1cc([C@@H]2COC[C@]3(CCOC3)N2)ccc1F` the solubility was greater than 750 µM (shake-flask, LC-HRMS; aqueous buffer; 16 h, pH 6.8).
`CNC(=O)c1cc(Oc2ccc(NC(=O)Nc3cc(C(C)(C)C)nn3-c3ccc4ncccc4c3)c(F)c2)ccn1`: “patients with adverse events” 56% (measured: musculoskeletal disorders, all grades; human patients; oral, dose not given, high Cmax subgroup, cycles 1-2).
For `C=CC(=O)Nc1cc(Nc2nccc(-c3cn(C4CC4)c4ccccc34)n2)c(OC)cc1N(C)CCN(C)C`, the MPV was 7.22 ± 0.102 fL (BALB/c nude mouse, LU0387 xenograft, blood; oral, 40 mg/kg).
`[H]/N=C(/N)c1ccc(NCc2nc3cc(C(=O)N(CCC(=O)O)c4ccccn4)ccc3n2C)cc1` gave an AUC24 ratio of 209% (healthy human, plasma; oral, dose not given, geometric mean, dabigatran etexilate dosed, together with: vepdegestrant 200 mg; relative to: with over without vepdegestrant).
For `CCc1cc2c(cc1N1CCC(N3CCOCC3)CC1)C(C)(C)c1[nH]c3cc(C#N)ccc3c1C2=O`, “average plasma concentration” read 0.852 µM (ALK inhibitor-naive patients, body weight at least sample B kg; oral, 600 mg twice daily, week 6).
With `CCN1CCN(Cc2ccc(NC(=O)c3ccc(C)c(NC(=O)c4cncc(-c5cccs5)c4)c3)cc2C(F)(F)F)CC1` the apparent clearance was 51 mL/min/kg (C57BL/6 mice, epithelial lining fluid; intraperitoneal, 15 mg/kg).
`Fc1ccc([C@@H]2COC[C@H](c3ccc4c(c3)OCCO4)N2)c2ccccc12` has a solubility of less than 4 µM (shake-flask, LC-HRMS; aqueous buffer; 16 h, pH 6.8).
`Cc1cc([C@H]2C[C@H]3[C@@H](C)SC(N)=N[C@@]3(c3ccc(F)cc3F)CO2)on1` gave a CSF concentration of 11 nM (male 129/SVE mouse, CSF; subcutaneous, 50 mg/kg, 9 h).
`CCO[C@H]1CCN(Cc2c(OC)cc(C)c3[nH]ccc23)[C@H](c2ccc(C(=O)O)cc2)C1` — result for “incidence of dry throat”: 0% (PNH patients, active haemolysis; oral, 25 mg, 4 weeks, treatment).
`Cc1c(-c2ccc(N3CCc4cccc(C(=O)Nc5nc6ccccc6s5)c4C3)nc2C(=O)O)cnn1CC12CC3(C)CC(C)(C1)CC(OCCNCC[C@H](O)CO)(C3)C2` — result for “mean arterial pressure change”: -8 mmHg (beagle dog, anaesthetised; intravenous infusion, 0.1 mg/kg/min, 120 min; relative to: baseline).
The CSF concentration of `Cc1cc([C@H]2C[C@H]3[C@@H](CF)SC(N)=N[C@@]3(c3ccc(F)cc3F)CO2)on1` is reported as 10 nM (129/SVE wild-type mouse, male; subcutaneous, 100 mg/kg, 9 h).
Under “placebo-adjusted change from baseline”, `COc1cc(C(=O)N2CCC3(CC2)CC(=O)c2c(cnn2C(C)C)C3)cc(-c2ccc(C(=O)O)cc2)n1` is recorded as -1.4% (measured: direct LDL cholesterol; human, fasting serum; 1 mg every 12 h, day 13, adjusted geometric mean; relative to: baseline and placebo).
For `Cc1cc(C(=O)NC(C)(C)COc2cccc3c2C(N)=NS(=O)(=O)N3)cc(C)n1.O=S(=O)(O)O`, the AUC(last) ratio was 1.12 (Sprague-Dawley rat, plasma; oral, 10 mg/kg, vehicle 1% methylcellulose; relative to: female over male).
`Cn1cc(Nc2nccc(-c3ccc4c(c3)CN(C3COC3)CC[C@H]4NC(=O)c3cn(C(C)(C)C)nn3)n2)cn1`: “monocyte count change” -12.4% (human, whole blood; 150 mg twice daily, day 14; relative to: pre-dose baseline).
`CCn1cc(C(=O)N2CCOCC2)c(=O)c2cc(NC3Cc4ccccc4C3)cnc21` — result for “patients with adverse event”: 11.8% (human, GAD, PTSD or social anxiety disorder; dose not given, TEAE Headache, pooled phase trials).
Under “frozen storage stability”, `O=c1[nH]c(=O)c(Cc2cccc(C(F)(F)F)c2)c([C@H]2CC[C@H](c3ccccc3)CC2)[nH]1` is recorded as 1030 days (human plasma; -20 and -70 °C).
Under “share of ECG observations”, `CCOc1c([C@H](C)n2nc(C)c3c(N)ncnc32)cc(Cl)c(F)c1[C@@H]1CNC(=O)C1` is recorded as 100% (measured: ΔQTcF ≤ 30 ms; previously treated B-cell malignancy; oral, 45 mg once daily, baseline QTcF ≤450 ms).
`Cc1cc(Nc2ncnc3ccc(NC4=NC(C)(C)CO4)cc23)ccc1Oc1ccn2ncnc2c1` — result for “drug-related adverse events”: 7.7% (measured: Diarrhea; healthy volunteers; oral, dose not given, grade 1-2).
The total Cmax of `CCO[C@H]1CCN(Cc2c(OC)cc(C)c3[nH]ccc23)[C@H](c2ccc(C(=O)O)cc2)C1` is reported as 3560 ng/mL (human mild hepatic impairment, plasma; oral, 200 mg single dose, geometric mean).
`C[C@]12CC[C@@H]3c4ccc(O)cc4CC[C@H]3[C@@H]1CC[C@@H]2O`: uterine weight “increased” (immature female Sprague-Dawley rat; oral, dose not given, 4 days once daily, uterotrophic; relative to: vehicle).
